Results of several laboratories.
Parts stem from different laboratories: compare values within a part only. Positions count from the first letter of the parent shown.
UniProt P49841, sequence (whole entry, looked up): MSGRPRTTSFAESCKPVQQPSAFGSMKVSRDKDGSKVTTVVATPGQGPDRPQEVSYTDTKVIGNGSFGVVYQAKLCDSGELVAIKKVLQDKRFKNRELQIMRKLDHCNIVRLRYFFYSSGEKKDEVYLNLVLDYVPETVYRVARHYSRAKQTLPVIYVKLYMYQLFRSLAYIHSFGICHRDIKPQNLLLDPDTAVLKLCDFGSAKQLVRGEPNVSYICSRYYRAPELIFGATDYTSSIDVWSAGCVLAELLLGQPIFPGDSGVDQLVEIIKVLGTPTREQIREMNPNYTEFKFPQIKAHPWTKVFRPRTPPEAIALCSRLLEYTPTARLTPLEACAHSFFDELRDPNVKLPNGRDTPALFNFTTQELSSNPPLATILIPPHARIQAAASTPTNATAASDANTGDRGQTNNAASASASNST
UniProt Q8WTQ7, sequence (whole entry, looked up): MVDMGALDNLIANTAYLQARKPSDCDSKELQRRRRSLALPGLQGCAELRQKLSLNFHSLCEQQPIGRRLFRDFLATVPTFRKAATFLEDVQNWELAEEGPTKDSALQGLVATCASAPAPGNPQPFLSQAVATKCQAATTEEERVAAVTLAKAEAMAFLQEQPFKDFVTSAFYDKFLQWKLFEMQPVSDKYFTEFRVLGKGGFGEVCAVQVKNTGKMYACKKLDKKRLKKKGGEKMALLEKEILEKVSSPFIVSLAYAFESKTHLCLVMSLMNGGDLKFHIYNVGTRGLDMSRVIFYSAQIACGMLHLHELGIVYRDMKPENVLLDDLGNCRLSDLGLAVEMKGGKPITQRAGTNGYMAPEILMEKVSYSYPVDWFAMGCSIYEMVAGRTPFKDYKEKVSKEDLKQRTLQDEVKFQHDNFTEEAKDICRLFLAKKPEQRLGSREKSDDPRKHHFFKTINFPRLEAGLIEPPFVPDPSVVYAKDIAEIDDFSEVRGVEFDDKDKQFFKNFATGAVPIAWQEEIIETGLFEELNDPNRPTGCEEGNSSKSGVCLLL
UniProt Q13043, sequence (whole entry, looked up): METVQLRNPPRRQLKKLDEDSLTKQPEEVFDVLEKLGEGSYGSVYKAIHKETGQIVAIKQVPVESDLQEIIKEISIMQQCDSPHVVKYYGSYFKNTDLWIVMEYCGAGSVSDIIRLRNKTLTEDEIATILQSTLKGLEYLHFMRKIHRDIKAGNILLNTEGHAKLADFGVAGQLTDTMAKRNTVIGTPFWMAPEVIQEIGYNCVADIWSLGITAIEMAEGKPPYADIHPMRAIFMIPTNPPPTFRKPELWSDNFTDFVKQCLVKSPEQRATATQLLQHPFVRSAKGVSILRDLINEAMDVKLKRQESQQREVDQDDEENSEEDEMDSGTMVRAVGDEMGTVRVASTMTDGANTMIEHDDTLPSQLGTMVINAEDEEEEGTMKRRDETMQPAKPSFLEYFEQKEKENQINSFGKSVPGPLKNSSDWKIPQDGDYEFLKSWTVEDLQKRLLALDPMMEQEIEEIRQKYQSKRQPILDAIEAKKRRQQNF
UniProt Q96PY6, sequence (whole entry, looked up): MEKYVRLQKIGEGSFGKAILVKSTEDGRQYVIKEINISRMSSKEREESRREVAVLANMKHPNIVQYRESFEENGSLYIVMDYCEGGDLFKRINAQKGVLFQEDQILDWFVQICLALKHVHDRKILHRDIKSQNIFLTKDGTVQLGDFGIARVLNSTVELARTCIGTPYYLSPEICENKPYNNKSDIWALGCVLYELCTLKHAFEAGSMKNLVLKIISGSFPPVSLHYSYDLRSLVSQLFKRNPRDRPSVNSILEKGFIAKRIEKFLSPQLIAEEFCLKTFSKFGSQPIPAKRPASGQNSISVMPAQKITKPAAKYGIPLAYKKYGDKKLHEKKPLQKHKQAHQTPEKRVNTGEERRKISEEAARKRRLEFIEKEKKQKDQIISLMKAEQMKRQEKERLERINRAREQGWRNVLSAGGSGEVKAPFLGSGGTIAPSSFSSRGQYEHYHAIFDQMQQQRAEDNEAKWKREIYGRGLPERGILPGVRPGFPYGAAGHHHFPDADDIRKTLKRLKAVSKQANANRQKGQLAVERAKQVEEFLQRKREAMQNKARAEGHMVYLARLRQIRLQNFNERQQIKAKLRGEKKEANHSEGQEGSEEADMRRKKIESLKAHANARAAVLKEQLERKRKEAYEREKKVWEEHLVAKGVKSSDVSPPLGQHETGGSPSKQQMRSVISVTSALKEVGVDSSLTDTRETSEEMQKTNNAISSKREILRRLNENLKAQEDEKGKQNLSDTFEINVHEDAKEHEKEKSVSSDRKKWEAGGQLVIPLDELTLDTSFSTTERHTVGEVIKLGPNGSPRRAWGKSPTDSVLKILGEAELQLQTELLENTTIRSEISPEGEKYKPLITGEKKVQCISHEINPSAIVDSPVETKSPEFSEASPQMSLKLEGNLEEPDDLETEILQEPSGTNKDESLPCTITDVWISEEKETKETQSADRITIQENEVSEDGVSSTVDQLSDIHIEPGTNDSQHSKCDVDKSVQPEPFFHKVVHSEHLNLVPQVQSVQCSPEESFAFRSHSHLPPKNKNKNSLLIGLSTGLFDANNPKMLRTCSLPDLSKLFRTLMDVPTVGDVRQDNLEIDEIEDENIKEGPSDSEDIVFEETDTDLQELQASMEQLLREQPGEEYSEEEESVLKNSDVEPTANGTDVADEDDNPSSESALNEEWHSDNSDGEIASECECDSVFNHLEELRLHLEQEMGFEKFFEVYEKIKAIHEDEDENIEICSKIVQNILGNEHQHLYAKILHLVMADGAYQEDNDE
UniProt P42336, sequence (whole entry, unmodified, looked up): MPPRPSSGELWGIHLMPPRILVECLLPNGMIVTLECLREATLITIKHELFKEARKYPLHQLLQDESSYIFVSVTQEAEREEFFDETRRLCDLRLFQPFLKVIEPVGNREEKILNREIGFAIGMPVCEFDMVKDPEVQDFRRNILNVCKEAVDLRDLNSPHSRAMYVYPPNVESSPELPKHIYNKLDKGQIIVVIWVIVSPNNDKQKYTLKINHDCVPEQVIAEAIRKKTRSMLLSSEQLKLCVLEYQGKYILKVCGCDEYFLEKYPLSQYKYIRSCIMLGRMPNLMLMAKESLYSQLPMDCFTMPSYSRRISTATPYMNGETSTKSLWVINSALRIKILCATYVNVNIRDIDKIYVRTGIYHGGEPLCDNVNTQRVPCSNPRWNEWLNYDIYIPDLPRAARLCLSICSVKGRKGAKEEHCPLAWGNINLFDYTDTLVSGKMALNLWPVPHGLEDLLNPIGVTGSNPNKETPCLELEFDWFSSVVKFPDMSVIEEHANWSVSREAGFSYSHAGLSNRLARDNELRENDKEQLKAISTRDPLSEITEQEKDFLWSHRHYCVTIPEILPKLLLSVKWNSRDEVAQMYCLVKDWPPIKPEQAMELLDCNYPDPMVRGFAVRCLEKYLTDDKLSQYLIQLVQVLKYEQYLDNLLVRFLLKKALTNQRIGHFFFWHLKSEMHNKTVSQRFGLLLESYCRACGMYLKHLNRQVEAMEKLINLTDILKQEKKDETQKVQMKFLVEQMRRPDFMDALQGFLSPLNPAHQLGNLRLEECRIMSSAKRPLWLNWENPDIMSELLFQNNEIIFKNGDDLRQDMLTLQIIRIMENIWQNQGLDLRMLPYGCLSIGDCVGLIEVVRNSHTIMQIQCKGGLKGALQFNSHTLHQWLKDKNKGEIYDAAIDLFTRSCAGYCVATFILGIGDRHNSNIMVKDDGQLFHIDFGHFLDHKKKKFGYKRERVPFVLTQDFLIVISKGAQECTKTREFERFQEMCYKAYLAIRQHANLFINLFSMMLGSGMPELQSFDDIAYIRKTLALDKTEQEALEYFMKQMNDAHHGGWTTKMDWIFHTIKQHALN
UniProt Q12866, sequence (whole entry, looked up): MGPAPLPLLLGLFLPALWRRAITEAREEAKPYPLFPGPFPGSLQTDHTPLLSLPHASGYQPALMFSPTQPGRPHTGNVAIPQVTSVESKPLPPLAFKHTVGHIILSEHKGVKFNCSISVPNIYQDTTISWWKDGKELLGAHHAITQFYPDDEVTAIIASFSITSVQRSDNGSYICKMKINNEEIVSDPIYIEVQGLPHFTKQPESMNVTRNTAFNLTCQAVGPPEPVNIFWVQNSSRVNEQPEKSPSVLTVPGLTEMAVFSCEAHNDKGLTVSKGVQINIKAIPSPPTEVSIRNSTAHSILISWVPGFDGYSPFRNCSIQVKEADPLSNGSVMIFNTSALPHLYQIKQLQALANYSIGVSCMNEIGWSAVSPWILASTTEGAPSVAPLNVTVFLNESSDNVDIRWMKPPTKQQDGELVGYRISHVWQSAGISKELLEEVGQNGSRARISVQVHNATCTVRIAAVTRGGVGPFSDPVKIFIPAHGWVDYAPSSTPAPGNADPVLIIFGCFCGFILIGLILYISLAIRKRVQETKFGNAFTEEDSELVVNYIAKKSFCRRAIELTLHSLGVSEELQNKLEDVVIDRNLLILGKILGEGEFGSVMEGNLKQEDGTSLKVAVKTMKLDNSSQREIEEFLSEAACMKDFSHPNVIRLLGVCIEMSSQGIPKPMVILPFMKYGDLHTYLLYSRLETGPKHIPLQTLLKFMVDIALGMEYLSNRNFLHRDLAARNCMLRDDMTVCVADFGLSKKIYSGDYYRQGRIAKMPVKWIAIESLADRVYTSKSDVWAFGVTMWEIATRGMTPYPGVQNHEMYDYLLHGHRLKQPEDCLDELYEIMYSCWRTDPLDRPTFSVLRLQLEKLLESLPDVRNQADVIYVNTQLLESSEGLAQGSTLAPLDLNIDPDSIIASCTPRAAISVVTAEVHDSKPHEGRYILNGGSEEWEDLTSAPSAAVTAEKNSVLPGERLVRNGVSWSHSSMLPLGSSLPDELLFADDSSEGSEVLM

Sample 1
SMILES: CC(=O)O/N=C1/C(c2c(O)[nH]c3cc(Br)ccc23)=Nc2ccccc21
Observed: enzyme activity
Mode: inhibitor
Tested at: 0.5 µM
Relative to: control
The remaining activity was 92.8% (MST1R (Homo sapiens, UniProt Q04912)).
For EPHA3 (Homo sapiens, UniProt P29320): remaining activity read 88.2%.
For ACVR1B (Homo sapiens, UniProt P36896): remaining activity read 98.2%.
It gave 46.5% for remaining activity (FGFR3 (Homo sapiens, UniProt P22607)).
For TEK (Homo sapiens, UniProt Q02763): remaining activity read 106%.
The remaining activity was 68.8% (FGFR1 (Homo sapiens, UniProt P11362)).
The remaining activity was 99.5% (GRK7 (Homo sapiens, UniProt Q8WTQ7)).
For CSNK1G2 (Homo sapiens, UniProt P78368): remaining activity read 89.7%.
For NEK1 (Homo sapiens, UniProt Q96PY6): remaining activity read 94.7%.
The remaining activity was 100% (NEK6 (Homo sapiens, UniProt Q9HC98)).
The remaining activity was 77% (MERTK (Homo sapiens, UniProt Q12866)).
GSK3B (Homo sapiens, UniProt P49841) — remaining activity: 14.3%.
It gave 53.5% for remaining activity (LCK (Homo sapiens, UniProt P06239)).
MAP3K5 (Homo sapiens, UniProt Q99683) — remaining activity: 95.8%.

Sample 2
SMILES: CS(=O)(=O)NCC[C@H](NC(=O)c1cncc2c1cnn2-c1ccc(F)cc1)c1ccnc(S(C)(=O)=O)c1
Observed: cell-free assay
Method: competition with immobilised ligand
Tested at: 1 µM
The remaining binding was 100% (EGFR (Homo sapiens, UniProt P00533, del752-759)).
PIK3CA (Homo sapiens, UniProt P42336, H1047Y) — remaining binding: 100%.
The remaining binding was 100% (KIT (Homo sapiens, UniProt P10721, V559D/V654A)).
For Tyrosine-protein kinase ABL1, non-phosphorylated (ABL1, Homo sapiens, UniProt P00519, H396P): remaining binding read 97%.
The remaining binding was 100% (STK4 (Homo sapiens, UniProt Q13043)).
It gave 92% for remaining binding (DDR1 (Homo sapiens, UniProt Q08345)).

Sample 3
Target: Phosphate system positive regulatory protein PHO4, full length, GST-tagged (PHO4, Saccharomyces cerevisiae, UniProt P07270, residues 1-312)
Method: competition protein-binding microarray
Molecule type: double-stranded DNA, one strand shown
Matrix: in vitro
Tested at: 2 µM
Setting: whole 60-bp probe, lowest competitor level
Together with: Cbf1 competitor, 0.05 µM
Reading: higher = stronger binding
Shared flanks, not repeated: … GTCTTGATTCGCTTGACGCTGCTG
Target sequence (chain): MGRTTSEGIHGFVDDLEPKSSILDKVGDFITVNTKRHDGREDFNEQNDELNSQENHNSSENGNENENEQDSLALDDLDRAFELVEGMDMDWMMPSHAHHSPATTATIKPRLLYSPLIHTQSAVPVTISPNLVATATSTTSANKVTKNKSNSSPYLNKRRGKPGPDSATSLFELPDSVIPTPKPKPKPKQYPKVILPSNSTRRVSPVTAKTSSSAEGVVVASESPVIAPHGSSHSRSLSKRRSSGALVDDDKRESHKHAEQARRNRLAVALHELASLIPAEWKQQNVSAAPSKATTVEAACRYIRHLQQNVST
`CATACCCAACCTTGGACTGTGGGTGAAGATATTTGT` has a fluorescence intensity of 3600 a.u.
The fluorescence intensity of `AATATTTCGTCGAGTCACGTAAGTGCAAGGTAATAA` is reported as 4650 a.u.
For `CCTTGTCAGAGTCCGCACGGCCTTTTACTCTGGTGC`, the fluorescence intensity was 4930 a.u.
The fluorescence intensity of `GAAGTAAGTTTTCCGCACGTAAAACTACTACAACAA` is reported as 4460 a.u.
With `CTTCTGTAAATTTATCACGTGTTTTGACGCGCCCCG` the fluorescence intensity was 15300 a.u.
For `CGGGGTTAAGTTTTTCACGTGAACTGCTTGCAGCAG`, the fluorescence intensity was 7570 a.u.
The fluorescence intensity of `CTTCTGTAAATTTGGTGCGTGGGTGGACGCGCCCCG` is reported as 9100 a.u.
The fluorescence intensity of `TCCCGCTATTTCGACCACGTGGAATCATTTTCGGGT` is reported as 18700 a.u.

Sample 4
Target: ABI1, truncated, D143A, DHFR fusion (Arabidopsis thaliana)
Method: DHFR PCA, deep sequencing
Matrix: yeast
Setting: methotrexate growth selection, single substitutions
Together with: (+)-ABA 58 µM
Relative to: wild-type fitted maximum
Reading: higher = stronger binding
Starting sequence: PYL1, truncated, DHFR fusion (Arabidopsis thaliana); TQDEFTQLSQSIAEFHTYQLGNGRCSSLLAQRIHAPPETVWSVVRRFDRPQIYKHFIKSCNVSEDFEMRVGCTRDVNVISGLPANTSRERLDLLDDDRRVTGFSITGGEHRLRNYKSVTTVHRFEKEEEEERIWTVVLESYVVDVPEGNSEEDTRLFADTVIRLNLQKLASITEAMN
Under “relative binding score”, `R24P` is recorded as 6.94%.
`R113P` — result for “relative binding score”: 3.46%.
Under “relative binding score”, `V136G` is recorded as 12.9%.
Under “relative binding score”, `G148F` is recorded as 48.9%.
Under “relative binding score”, `A175F` is recorded as 69.8%.
Under “relative binding score”, `T6H` is recorded as 83.2%.
For `S9R`, “relative binding score” read 95.3%.
For `E14D`, “relative binding score” read 70.6%.

For quick reference, copied from above (sample 1):
The remaining activity was 68.8% (FGFR1 (Homo sapiens, UniProt P11362)).
The remaining activity was 99.5% (GRK7 (Homo sapiens, UniProt Q8WTQ7)).
For CSNK1G2 (Homo sapiens, UniProt P78368): remaining activity read 89.7%.
For NEK1 (Homo sapiens, UniProt Q96PY6): remaining activity read 94.7%.
The remaining activity was 100% (NEK6 (Homo sapiens, UniProt Q9HC98)).
